{"data": "Measured values pooled from the literature", "SLC6A2": "Sodium-dependent noradrenaline transporter (SLC6A2, Homo sapiens, UniProt P23975)", "chain of UniProt P23975 (whole entry, looked up)": "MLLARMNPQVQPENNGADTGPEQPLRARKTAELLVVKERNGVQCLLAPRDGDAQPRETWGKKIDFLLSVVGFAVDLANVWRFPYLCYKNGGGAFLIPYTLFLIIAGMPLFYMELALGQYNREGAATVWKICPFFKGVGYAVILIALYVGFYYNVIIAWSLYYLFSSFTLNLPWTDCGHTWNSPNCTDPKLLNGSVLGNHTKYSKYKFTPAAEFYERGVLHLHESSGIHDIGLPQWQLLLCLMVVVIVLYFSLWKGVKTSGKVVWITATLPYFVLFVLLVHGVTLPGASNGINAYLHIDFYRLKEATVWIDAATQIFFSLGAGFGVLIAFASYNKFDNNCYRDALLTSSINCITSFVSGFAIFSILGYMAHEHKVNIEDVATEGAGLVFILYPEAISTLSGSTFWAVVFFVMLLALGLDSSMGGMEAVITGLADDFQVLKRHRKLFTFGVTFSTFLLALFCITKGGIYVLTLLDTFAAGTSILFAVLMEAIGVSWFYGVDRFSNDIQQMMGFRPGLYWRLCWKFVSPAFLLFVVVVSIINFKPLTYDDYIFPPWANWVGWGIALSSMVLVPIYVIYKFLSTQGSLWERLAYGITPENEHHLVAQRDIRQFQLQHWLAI"}
{"SMILES": "CCCC[C@@H](NC(=O)[C@@H](N)Cc1c(C)cc(O)cc1C)C(=O)NCC(=O)N[C@@H](Cc1ccc(F)cc1)C(=O)N(C)CCC[C@@]1(c2ccc(F)cc2)OCc2cc(C#N)ccc21", "target or system": "SLC6A2", "setting": "10 µM", "endpoint": "inhibition", "result": "< 50%"}
{"SMILES": "Cn1cccc1-c1cccnc1", "target or system": "SLC6A2", "assay": "binding", "setting": "50 µM", "endpoint": "inhibition", "result": "-3.74%"}
{"SMILES": "Cc1cnc(Nc2ccc(OCCN3CCCC3)cc2)nc1Nc1cccc(S(=O)(=O)NC(C)(C)C)c1", "target or system": "human coronavirus OC43", "assay": "virus-induced cell killing", "test system": "MRC-5", "setting": "screen", "endpoint": "maximum inhibition", "result": "15.1%"}
{"SMILES": "C[C@H]1COCCN1c1nc(NCc2cccnc2C(F)(F)F)c2cccnc2n1", "target or system": "SLC6A2", "assay": "binding", "setting": "CEREP panel", "endpoint": "IC50", "result": "8.3 µM"}
{"SMILES": "O=c1ccc2ccccc2o1", "target or system": "SLC6A2", "assay": "antagonist radioligand binding", "setting": "10 µM, SafetyScreen44", "endpoint": "inhibition", "result": "-25%"}
{"SMILES": "CC(C)CC(=O)OC[C@H]1O[C@@](C#N)(c2ccc3c(N)ncnn23)[C@H](O)[C@@H]1O", "target or system": "SLC6A2", "setting": "20 µM", "endpoint": "inhibition", "result": "3%"}
{"SMILES": "CN[C@@]1(c2ccccc2Cl)CCCCC1=O", "target or system": "SLC6A2", "assay": "radioligand binding, antagonist, radioligand displacement", "setting": "30 µM", "endpoint": "inhibition", "result": "3%"}
{"SMILES": "Cc1cc(O)cc(C)c1C[C@H](N)C(=O)N[C@H](C)C(=O)NCC(=O)N[C@@H](Cc1ccc(Cl)cc1)C(=O)N(C)CCC[C@@]1(c2ccc(F)cc2)OCc2cc(C#N)ccc21", "target or system": "SLC6A2", "setting": "10 µM", "endpoint": "inhibition", "result": "< 50%"}
{"SMILES": "CCN(CC)CCCC[C@H](NC(=O)[C@H](CC(C)C)NC(=O)[C@H](C)NC(=O)[C@H](Cc1ccccc1)NC(=O)c1ccc(C(C)(C)C)cc1)C(=O)N[C@@H](CO)C(=O)OC", "target or system": "SLC6A2", "assay": "antagonist, radioligand binding", "setting": "10 µM", "how to read": "baseline: control binding", "endpoint": "specific binding", "result": "113%"}
{"SMILES": "CN1CC[C@H](c2c(O)cc(O)c3c(=O)cc(-c4ccccc4Cl)oc23)[C@H](O)C1", "target or system": "human coronavirus OC43", "assay": "virus-induced cell killing", "test system": "MRC-5", "setting": "maximum over 10 doses", "endpoint": "maximum inhibition", "result": "0%"}
{"SMILES": "c1ccc(C(NCCNC(c2ccccc2)c2ccccc2)c2ccccc2)cc1", "target or system": "SLC6A2", "assay": "transport, inhibitor", "setting": "10 µM", "endpoint": "inhibition", "result": "98%"}
{"note": "A few entries again:"}
{"SMILES": "CCCC[C@@H](NC(=O)[C@@H](N)Cc1c(C)cc(O)cc1C)C(=O)NCC(=O)N[C@@H](Cc1ccc(F)cc1)C(=O)N(C)CCC[C@@]1(c2ccc(F)cc2)OCc2cc(C#N)ccc21", "target or system": "SLC6A2", "setting": "10 µM", "endpoint": "inhibition", "result": "< 50%"}
{"SMILES": "CN1CC[C@H](c2c(O)cc(O)c3c(=O)cc(-c4ccccc4Cl)oc23)[C@H](O)C1", "target or system": "human coronavirus OC43", "assay": "virus-induced cell killing", "test system": "MRC-5", "setting": "maximum over 10 doses", "endpoint": "maximum inhibition", "result": "0%"}
